Assay results collected from several papers.
A part holds a random share of what one study measured. Positions count from the first letter of the parent shown.

Series 1 — method: DHFR PCA, deep sequencing; matrix: yeast; with: (+)-ABA 58 µM; relative to: wild-type fitted maximum; direction: higher = stronger binding; endpoint: relative binding score
Target: ABI1, truncated, D143A, DHFR fusion (Arabidopsis thaliana)
Notes: methotrexate growth selection, single substitutions
Starting sequence: PYL1, truncated, DHFR fusion (Arabidopsis thaliana); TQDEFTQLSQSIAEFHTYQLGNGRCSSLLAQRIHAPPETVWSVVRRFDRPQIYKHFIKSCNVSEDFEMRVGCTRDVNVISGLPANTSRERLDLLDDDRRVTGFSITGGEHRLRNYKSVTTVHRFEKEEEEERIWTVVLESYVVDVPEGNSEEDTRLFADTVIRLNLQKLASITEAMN; partner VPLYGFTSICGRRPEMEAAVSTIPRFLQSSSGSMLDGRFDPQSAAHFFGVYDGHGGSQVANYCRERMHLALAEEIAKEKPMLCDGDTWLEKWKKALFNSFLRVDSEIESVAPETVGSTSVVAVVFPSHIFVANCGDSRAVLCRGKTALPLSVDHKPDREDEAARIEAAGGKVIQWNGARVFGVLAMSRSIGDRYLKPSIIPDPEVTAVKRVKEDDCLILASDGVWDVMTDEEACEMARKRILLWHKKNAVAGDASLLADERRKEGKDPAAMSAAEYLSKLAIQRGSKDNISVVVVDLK
E38L: 33.9%
I133C: 94.5%
G81M: 12.9%
D97Q: 97.2%
L156Y: 75.7%
R99A: 55.9%
T73P: 11.9%
V100M: 78.2%
R98I: 73.2%
Y18R: 74.3%
L28G: 6.61%
I12S: 17.9%
T135I: 4.36%
Q51W: 31.6%

Series 2 — method: protein binding microarray; molecule type: double-stranded DNA, one strand shown; matrix: in vitro; tested at: not given; relative to: not given; direction: higher = stronger binding; endpoint: E-score
Target: Histone acetyltransferase KAT6A, both winged helices, GST fusion (KAT6A, Homo sapiens, UniProt Q92794, residues 1-181)
Notes: 8-mer, flanks averaged, mean of 2 arrays, mostly near background
Target sequence (chain): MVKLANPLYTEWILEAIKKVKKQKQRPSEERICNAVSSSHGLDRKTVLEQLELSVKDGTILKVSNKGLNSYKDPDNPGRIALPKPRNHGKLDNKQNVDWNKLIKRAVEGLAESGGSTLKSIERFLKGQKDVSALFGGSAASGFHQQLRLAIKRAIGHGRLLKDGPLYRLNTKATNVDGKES
ACGAAATG: -0.203
CCAAGTCC: -0.147
TCAAGTAA: -0.0985
AATAATAT: -0.0088
AGGGATTA: -0.163
ACTCGAAC: -0.0808
CGGCGGTC: 0.253
GCTAGGCC: 0.0219
TCCCAAGA: -0.152
GCCCGCGA: 0.204
ATTTCTTC: -0.0821
GAATTCGC: 0.141
AGTTGTGA: -0.0939
ATTACTGC: -0.0626
GACTGCCA: -0.0882
ATGTGGAC: -0.0176
CCATGTAA: 0.0711
CATGAACG: -0.0204
AATGAAGT: -0.101

Series 3 — method: protein-binding microarray; molecule type: double-stranded DNA, one strand shown; matrix: in vitro; tested at: 250 nM; notes: 60-bp whole probe; with: salmon DNA 0.4 mg/ml; relative to: random background probes; direction: higher = stronger binding; endpoint: log fluorescence; shared flanks, not repeated: GCCTAGCAC … GTCTTGATTCGCTTGACGCTGCTG
Target: Interferon regulatory factor 5, full length, phosphomimetic (IRF5, Homo sapiens, UniProt Q13568-2, residues 1-514, K96S/S451D/S453D/S456D/S462D)
TTAGATTTCAGTATCGATTCGTGCTAG: 7.72 z-score
TTAGGTCTCCTACTACTTTAGTGCTAG: 0.0441 z-score
GACGATTTCGGGTATCGAGGCGTGCTA: 4.56 z-score
TAACTTTTTTTTTTCCCTGAGTGCTAG: 0.915 z-score
GGCGGTTTCGGGACTGGGGACGTGCTA: 4.87 z-score
GACGGTCTCCTTTTCCGGACGTGCTAG: 0.138 z-score
GACGGTTTCGGGACCGGGGACGTGCTA: 5.35 z-score
TCAAAACTAAGTTTATTACTGTGCTAG: 0.677 z-score
GACGGACTAGGACTGGGGACGTGCTAG: -0.471 z-score
TTAGAACTGGGGACTAGATTAGTGCTA: -0.216 z-score
TTAGGTATCCTGTTCCTTTAGTGCTAG: -0.00692 z-score

Series 4 — method: RNA Bind-n-Seq; molecule type: RNA; matrix: in vitro; tested at: 365 nM; relative to: no-protein control; direction: higher = stronger binding; endpoint: RBNS enrichment (R)
Target: RNA binding protein fox-1 homolog 2, RRM domain, GST-SBP tag (RBFOX2, Homo sapiens, UniProt O43251-10, residues 100-194)
Notes: natural RNA segment, single round, ends assumed
Shared flanks, not repeated: GGGAGUUCUACAGUCCGACGAUC … UGGAAUUCUCGGGUGCCAA
Residues (chain): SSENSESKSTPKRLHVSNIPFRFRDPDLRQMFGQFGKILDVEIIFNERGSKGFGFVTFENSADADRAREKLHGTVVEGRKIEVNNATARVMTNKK
UUGAAGCAAUGUGAGAGCUGUUAUUUUGCAUAUAUGUUCUUCAUAAGCUGAACCACCAACAGAGAAAAGCAGGCCUUUGCAGAUAUGAUGGAAUGCAUCCCACCUUGCCA: 0.573
CACUACCUGGGACUCUCUGCGAUGUACAUAAUAUUUAAUGCGGUUCCGGCAGCAGCCUUCUCUGGAGGACUGAUACACAGAAGGAAACGAAGGCGCUUGCUGUGGCCGCA: 0.63
UGGGGUCUCCCCCAACAUUGUUGCUCUUUUAAACAAAUUGAAUUCUUUUUUCAAGGCUUAAAUUUUUUUUUUUCAUGACCUUCUGGAAGAAGCAAUAGUAGCAAUCUUAA: 0.435
UCUCUCAACUCUGAGGCCCUGGCCAGAUGUCCUCUGACUCUCCCAUCUCUCCCACCCGGCUCUAGGCCAAAAGGCUCGGUACCUCCUUACUGGGAGCCACGUAAAUGGAA: 0.46
ACCUGGCAAACUUCUCUAGCAUGUGCUGAAUGGGAGUGUCAGCUGCCAGGGAGCCUUAGGACCCCAGGGCCCCCAGCUCCCACUGCCUAGGGAGCGAAGGAAGACGCUGC: 16.9
UACCCACUUUGGAACCCACUUUCCCCAGUCUCUAGGUCCUGAUGCCUAGUGUGAUGAAGACCUUGCCCUCUUCAUUUCCCUCAACUCCCUACUCCUUUUAUGUAUGGAUG: 0.357
AAAAGCCUGCUCCUUACUGCACUCUGGACAAGGCCCUGGUCUGUAUAGUUUGGCUUCCUCUGUUAAGUCAUUCUACAAGGUGACUUGCCAUUUGAACUUUCGUAAGAGAC: 0.433
GCCACACUGCUCAAAGGUCCCUGCGUGGGGAGGUGUCACACCAGGGGCACACCCAGGGCCACCUGGGUGUAGGAGAGCUCUGGUGGCCCCUCCGUAAACUCAGGAAGUGU: 0.469
GACUCACACUUCUGACCCUGCCUGUCUUUUUGGGGUUUUUUUGAGUUGGAGUCUCGCUGUGUCGCCCAGACUGGAGUGCAGUGGUGGGAUCGCGGCUCACUGCAACCUCC: 1.58
GAUAGGGAUGGUAUGAAAUGCUGCUGGUGGGCUGGUAAAUCCAAAGGGAUAAGGCUUCAGUGCUGUUGGGAGCCCUCUGGCUCCAAAUGUCUGACUAUCUUGAGGGAGAA: 0.592
AAAGAACAAAAUAACCCGACCUUUAUUGCUGGGAGCUGGCUUCUGUCCCUUUCUUCCCCCCCCCACGAGUCUUGCCCUUGACUUCUGCUCUGGAUUCACUCUUCCCUGUC: 0.906
GCACAGCCCACUUGGAUUUGUUUGUUUGGUUUUGCCUUGAGACUGGGUCUCACUAUACAGAGCAGCCUGCCUCCCCACUGCUGGGAUUAAGCUGAGAAGCACCAAGUCUG: 1.79

Series 5 — method: universal PBM; molecule type: double-stranded DNA, one strand shown; matrix: in vitro; tested at: not given; direction: higher = stronger binding; endpoint: E-score
Target: Sal-like protein 4, full length isoform B (SALL4, Homo sapiens, UniProt Q9UJQ4-2, residues 1-616)
Notes: 8-mer, flanks averaged, mean of replicates
ATCTGAGG: -0.0345
CCGTGCAC: -0.154
AGGCTGAC: -0.228
GCTTGTAC: 0.0265
AATGTGGA: 0.209
ATAACAGC: 0.247
AAAGTGAA: 0.176
CCACTCGA: -0.0796
ATGTCCAG: -0.0702
AGGCTTAG: -0.0727
CGTCGCCA: -0.102
CCGCGAAC: -0.252
CTCCAGCC: -0.339
CTGCCGGA: -0.221
ATGGTTGA: 0.0219
CCACTAAC: 0.0251
CAGTCACC: -0.179
ATAACGCC: 0.159
AACAGGAC: -0.144
GCCTTAGC: -0.164
AAAAGTGC: 0.0321
TCAATTCA: 0.21
ATCATGCC: 0.117
ACGCTCCC: -0.165
AGCGGCAG: -0.267

Series 6 — target: CEP164, C-terminal peptide (human); method: DHFR complementation, deep sequencing; matrix: yeast; relative to: wild type; direction: higher = weaker binding; endpoint: binding free energy change
Notes: single substitutions, model-inferred values
Starting sequence: PDZK1, PDZ domain 2 (human); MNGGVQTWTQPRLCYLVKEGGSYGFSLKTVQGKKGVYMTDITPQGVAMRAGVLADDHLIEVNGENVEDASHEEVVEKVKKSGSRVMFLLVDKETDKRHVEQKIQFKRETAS; partner HNRVKVYRF
Y15P: 0.793 kcal/mol
L58F: 0.063 kcal/mol
L58N: 0.638 kcal/mol
E100V: -0.0404 kcal/mol
K18Q: 0.189 kcal/mol
S83N: -0.131 kcal/mol
T109H: -0.154 kcal/mol
E93C: -0.00159 kcal/mol
E93G: 0.000404 kcal/mol
K106P: -0.173 kcal/mol
K80A: 0.408 kcal/mol
V78P: 1.25 kcal/mol
G3A: -0.0425 kcal/mol
Y23A: 1.28 kcal/mol
H57I: -0.637 kcal/mol
K34H: 0.339 kcal/mol
Q44A: 0.037 kcal/mol

Series 7 — target: CCNA2, cyclin fold, Cln2 fusion (human); method: yeast growth competition, sequencing; matrix: yeast; notes: strong parent motif; relative to: not given; direction: higher = stronger binding; endpoint: normalised enrichment score
Starting sequence: CDKN1C docking peptide (human); TSACRSLFGPVDH
R5A L7A: -0.543
R5K F8L: 0.257
T1A: 2.89
R5K: 2.08
S6A: 2.7
S2A: 2.42
V11A: 3.69
G9A: 2.9
R5A: -0.183

Some of these lines once more (series 2):
CATGAACG: -0.0204
CCATGTAA: 0.0711
AATAATAT: -0.0088
TCCCAAGA: -0.152
CGGCGGTC: 0.253
ATTTCTTC: -0.0821
GAATTCGC: 0.141
AATGAAGT: -0.101
CCAAGTCC: -0.147
AGGGATTA: -0.163
ACGAAATG: -0.203
